Results gathered from unrelated publications.
Lines come from different studies, so protocols differ. ± gives the spread as reported.
CD209: CD209 antigen (CD209, Homo sapiens, UniProt Q9NNX6)
Chain of UniProt Q9NNX6 (whole entry, looked up): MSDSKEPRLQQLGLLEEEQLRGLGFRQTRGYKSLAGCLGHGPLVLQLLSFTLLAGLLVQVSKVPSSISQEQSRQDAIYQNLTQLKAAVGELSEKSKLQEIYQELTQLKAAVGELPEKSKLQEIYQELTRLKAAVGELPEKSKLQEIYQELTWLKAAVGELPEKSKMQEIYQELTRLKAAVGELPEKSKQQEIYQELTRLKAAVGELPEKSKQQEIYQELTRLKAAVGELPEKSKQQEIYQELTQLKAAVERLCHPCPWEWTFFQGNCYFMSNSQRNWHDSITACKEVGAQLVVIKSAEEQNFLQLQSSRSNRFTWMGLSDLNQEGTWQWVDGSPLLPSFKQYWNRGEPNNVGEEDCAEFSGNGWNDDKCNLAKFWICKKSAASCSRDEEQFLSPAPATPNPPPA
Kir3.1/Kir3.2: Kir3.1/Kir3.2 (Homo sapiens, UniProt P48051+P48549)
Chain of UniProt P48051 (whole entry, looked up): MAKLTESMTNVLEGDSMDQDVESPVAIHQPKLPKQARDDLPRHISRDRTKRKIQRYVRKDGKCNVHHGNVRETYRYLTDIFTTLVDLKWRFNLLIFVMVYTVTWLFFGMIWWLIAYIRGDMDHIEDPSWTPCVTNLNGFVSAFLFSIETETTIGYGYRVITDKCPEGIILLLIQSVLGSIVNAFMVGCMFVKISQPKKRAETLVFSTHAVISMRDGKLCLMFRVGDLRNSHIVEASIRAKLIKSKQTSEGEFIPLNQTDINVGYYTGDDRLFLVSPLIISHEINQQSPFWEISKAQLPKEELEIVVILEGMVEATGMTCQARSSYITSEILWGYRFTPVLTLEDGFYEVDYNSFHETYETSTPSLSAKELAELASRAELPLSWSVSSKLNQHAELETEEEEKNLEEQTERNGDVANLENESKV
Chain of UniProt P48549 (whole entry, looked up): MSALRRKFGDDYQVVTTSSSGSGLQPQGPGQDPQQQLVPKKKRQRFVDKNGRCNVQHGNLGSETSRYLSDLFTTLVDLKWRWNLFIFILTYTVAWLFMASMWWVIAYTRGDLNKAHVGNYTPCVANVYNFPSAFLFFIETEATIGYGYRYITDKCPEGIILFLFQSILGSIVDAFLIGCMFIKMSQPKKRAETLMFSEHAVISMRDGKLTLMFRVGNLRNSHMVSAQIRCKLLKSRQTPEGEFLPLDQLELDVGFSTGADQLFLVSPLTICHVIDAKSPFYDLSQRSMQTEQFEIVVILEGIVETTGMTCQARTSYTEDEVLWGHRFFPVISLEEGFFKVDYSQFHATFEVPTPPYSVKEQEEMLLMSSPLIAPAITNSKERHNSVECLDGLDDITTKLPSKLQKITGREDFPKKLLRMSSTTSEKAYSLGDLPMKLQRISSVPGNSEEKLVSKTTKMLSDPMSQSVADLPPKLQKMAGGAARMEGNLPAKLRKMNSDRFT
Cysltr2: Cysteinyl leukotriene receptor 2 (Cysltr2, Mus musculus, UniProt Q920A1)
Chain of UniProt Q920A1 (whole entry, looked up): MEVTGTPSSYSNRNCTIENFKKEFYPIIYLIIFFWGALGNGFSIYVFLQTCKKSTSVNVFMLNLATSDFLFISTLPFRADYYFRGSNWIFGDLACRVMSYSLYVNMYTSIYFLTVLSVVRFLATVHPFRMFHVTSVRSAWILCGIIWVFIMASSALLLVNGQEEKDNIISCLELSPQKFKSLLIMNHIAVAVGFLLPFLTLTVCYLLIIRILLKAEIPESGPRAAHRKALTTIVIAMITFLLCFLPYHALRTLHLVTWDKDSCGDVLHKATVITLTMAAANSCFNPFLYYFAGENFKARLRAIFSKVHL
Chain of UniProt P35414 (whole entry, looked up): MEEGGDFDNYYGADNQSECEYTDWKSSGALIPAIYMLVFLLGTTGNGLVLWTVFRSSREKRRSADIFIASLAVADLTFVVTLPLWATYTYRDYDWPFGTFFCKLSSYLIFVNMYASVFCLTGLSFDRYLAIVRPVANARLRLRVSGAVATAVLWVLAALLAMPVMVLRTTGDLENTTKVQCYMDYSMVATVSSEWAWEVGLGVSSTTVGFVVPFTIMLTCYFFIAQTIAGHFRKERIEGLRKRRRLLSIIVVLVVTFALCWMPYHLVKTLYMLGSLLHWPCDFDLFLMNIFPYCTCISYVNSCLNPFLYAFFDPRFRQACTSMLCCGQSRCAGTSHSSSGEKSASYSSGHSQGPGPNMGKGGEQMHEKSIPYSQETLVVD
Chain of UniProt P63079 (whole entry, looked up): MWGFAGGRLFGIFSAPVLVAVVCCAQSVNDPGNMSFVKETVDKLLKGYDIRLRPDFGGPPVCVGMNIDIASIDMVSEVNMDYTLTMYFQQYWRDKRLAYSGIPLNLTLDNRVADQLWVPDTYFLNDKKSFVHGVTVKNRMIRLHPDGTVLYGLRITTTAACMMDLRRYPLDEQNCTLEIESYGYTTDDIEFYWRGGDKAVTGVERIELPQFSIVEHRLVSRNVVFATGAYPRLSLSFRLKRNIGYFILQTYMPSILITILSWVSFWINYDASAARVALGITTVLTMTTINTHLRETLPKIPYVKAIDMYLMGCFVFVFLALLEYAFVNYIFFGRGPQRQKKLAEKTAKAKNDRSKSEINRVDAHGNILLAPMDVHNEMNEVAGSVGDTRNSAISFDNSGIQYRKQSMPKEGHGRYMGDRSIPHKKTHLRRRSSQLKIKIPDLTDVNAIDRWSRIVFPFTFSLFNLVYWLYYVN
Chain of UniProt P08235 (whole entry, looked up): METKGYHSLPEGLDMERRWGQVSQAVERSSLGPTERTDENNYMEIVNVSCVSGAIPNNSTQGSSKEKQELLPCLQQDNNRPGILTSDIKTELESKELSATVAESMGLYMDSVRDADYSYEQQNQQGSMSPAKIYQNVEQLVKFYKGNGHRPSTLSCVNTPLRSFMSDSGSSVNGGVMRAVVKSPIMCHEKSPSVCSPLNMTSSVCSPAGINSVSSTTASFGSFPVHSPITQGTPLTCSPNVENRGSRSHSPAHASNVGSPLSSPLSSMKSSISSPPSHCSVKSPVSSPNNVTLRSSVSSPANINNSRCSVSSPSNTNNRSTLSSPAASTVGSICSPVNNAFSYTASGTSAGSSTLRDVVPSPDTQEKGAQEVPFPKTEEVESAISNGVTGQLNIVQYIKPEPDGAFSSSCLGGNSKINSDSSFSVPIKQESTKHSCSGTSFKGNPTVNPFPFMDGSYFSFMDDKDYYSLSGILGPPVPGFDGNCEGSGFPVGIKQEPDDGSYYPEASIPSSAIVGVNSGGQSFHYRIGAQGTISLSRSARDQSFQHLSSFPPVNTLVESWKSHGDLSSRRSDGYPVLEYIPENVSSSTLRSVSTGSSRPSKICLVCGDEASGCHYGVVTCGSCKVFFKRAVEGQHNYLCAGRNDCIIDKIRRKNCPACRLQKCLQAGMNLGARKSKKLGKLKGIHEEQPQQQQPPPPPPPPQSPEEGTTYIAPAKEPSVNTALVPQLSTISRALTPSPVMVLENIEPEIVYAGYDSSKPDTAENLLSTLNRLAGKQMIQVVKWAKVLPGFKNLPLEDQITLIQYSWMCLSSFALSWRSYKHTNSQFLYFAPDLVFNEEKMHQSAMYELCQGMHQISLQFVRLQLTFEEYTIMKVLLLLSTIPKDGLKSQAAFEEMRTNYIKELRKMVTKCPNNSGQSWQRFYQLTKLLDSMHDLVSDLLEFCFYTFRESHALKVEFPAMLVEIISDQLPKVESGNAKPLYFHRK
Chain of UniProt A7T1N0 (whole entry, unmodified, looked up): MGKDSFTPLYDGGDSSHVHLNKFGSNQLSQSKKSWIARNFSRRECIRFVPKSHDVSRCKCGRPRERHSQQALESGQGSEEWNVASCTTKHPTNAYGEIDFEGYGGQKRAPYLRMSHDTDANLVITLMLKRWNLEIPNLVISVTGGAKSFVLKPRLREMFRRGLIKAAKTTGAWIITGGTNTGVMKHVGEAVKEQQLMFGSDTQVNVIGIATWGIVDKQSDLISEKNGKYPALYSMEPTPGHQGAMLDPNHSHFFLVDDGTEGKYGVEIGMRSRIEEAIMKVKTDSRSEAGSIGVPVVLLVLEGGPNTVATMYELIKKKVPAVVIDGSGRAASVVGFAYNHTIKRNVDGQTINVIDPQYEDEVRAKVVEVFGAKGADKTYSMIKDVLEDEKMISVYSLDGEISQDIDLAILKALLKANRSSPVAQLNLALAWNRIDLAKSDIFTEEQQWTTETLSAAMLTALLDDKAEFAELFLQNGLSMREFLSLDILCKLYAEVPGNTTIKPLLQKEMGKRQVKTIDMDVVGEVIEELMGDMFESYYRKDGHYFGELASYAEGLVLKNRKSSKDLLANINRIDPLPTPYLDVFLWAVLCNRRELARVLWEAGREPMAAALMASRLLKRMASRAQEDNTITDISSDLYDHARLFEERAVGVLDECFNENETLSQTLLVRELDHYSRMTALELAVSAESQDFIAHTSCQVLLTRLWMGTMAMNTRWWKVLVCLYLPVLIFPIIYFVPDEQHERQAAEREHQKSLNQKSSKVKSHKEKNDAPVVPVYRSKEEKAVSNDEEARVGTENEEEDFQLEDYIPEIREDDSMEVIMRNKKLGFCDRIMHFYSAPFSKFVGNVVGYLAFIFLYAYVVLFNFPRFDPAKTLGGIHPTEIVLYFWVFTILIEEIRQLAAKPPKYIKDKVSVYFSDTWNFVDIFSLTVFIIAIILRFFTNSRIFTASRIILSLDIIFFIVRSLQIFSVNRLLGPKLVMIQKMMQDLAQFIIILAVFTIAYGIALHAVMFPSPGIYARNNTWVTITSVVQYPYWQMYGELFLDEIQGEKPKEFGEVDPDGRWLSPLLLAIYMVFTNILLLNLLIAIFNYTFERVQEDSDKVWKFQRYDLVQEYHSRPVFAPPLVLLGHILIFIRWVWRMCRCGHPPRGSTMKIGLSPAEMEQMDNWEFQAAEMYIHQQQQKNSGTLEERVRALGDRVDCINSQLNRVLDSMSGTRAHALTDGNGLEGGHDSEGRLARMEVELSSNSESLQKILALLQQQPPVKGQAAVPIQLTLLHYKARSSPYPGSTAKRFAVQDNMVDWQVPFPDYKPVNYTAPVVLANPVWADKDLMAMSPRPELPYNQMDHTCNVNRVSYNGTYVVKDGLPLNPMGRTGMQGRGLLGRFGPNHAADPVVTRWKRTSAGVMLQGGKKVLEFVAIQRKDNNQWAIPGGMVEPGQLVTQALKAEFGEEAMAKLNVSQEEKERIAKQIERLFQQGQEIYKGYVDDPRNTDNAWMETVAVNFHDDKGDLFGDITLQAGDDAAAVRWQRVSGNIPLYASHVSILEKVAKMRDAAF

O=Cc1c(O)cc(C(F)(F)F)cc1C(F)(F)F
EC50 (CD209; binding, plate-based HRP; overnight, room temperature): 23000 nM

O=C(COc1cccc(Cl)c1Cl)Nc1cc(C2CCC2)nn1C1CCC(F)(F)CC1
EC50 (Kir3.1/Kir3.2; activator, thallium flux; HEK293): 450 nM

FC(F)=Cc1cc(C(F)(F)F)cc(C(F)(F)F)c1
EC50 (CD209; binding, plate-based HRP; overnight, room temperature): 84000 nM

COc1cc(Nc2ncc3c(n2)-c2ccc(Cl)cc2C(c2c(F)cccc2OC)=NC3)ccc1C(=O)NCCOCCOCCNC(=O)COc1cccc2c1C(=O)N(C1CCC(=O)NC1=O)C2=O (stereo not drawn)
EC50 (Tyrosine-protein kinase ABL2 (ABL2, Homo sapiens, UniProt P42684); binding, kinobead competition; MV4-11 cell lysate): > 30000 nM

N#Cc1ccsc1NC(=O)COc1cccc(Cl)c1Cl
EC50 (Kir3.1/Kir3.2; activator, thallium flux; HEK293): 1300 nM

COc1cc(Nc2ncc3c(n2)-c2ccc(Cl)cc2C(c2c(F)cccc2OC)=NC3)ccc1C(=O)O
EC50 (Ferrochelatase, mitochondrial (FECH, Homo sapiens, UniProt P22830); binding, kinobead competition; MV4-11 cell lysate): > 30000 nM

O=C(COc1ccc(Cl)cc1Cl)Nc1nn(-c2ccccc2)c2ncccc12
EC50 (Kir3.1/Kir3.2; activator, thallium flux; HEK293): > 10000 nM

O=C(COP(=O)(O)O)[C@@H](O)[C@H](O)[C@H](O)COP(=O)(O)O
EC50 (Pyruvate kinase PKM (PKM, Homo sapiens, UniProt P14618); pyruvate kinase activity, activator; HeLa cell lysate; with: AIM): 814 ± 41.8 nM

O=C(COc1ccc(Cl)cc1Cl)Nc1cc(C2CC2)nn1C1CCC(F)(F)CC1
EC50 (Kir3.1/Kir3.2; activator, thallium flux; HEK293): 209 nM

Ic1ccc(N2CCN(Cc3c[nH]c4ncccc34)CC2)cc1
EC50 (D(2) dopamine receptor (Drd2, Rattus norvegicus, UniProt P61169); cAMP response, antagonist, AlphaScreen; HEK293 stably expressing D2; with: (-)-quinpirole 60 nM): 1900 ± 2300 nM

Nc1ncnc2c1ncn2[C@@H]1O[C@H](COP(=O)(O)OP(=O)(O)OC[C@H]2OC(O)[C@H](O)[C@@H]2O)[C@@H](O)[C@H]1O (stereo partly drawn)
EC50 (TRPM2 (Nematostella vectensis, UniProt A7T1N0, K147A); channel activation, activator, inside-out patch clamp; 25 °C, -20 mV, with: 125 µM Ca2+, 2.5 µM diC8-PIP2): 9900 ± 1200 nM

Cn1cc2c(C(=O)O)ccc(NS(=O)(=O)c3ccc(OCC4CCC4)c(Cl)c3)c2n1
EC50 (Histamine H1 receptor (HRH1, Homo sapiens, UniProt P35367); agonist): > 10000 nM

CCOCc1nc(O)c(-c2nnc(Cc3ccc(Cl)cn3)o2)c(O)c1-c1c(OC)cccc1OC
EC50 (Apelin receptor (APLNR, Homo sapiens, UniProt P35414); Gαi2 activation, agonist, BRET biosensor; HEK293): 0.15 ± 0.04 nM

CCc1cc(NC(=O)COc2cc(Cl)ccc2Cl)n(C2CCOCC2)n1
EC50 (Kir3.1/Kir3.2; activator, thallium flux; HEK293): 180 nM

C[C@]12CCC(=O)C=C1CC[C@@H]1[C@@H]2[C@@H](O)C[C@@]2(C)[C@H]1CC[C@]2(O)C(=O)CO
EC50 (Mineralocorticoid receptor (NR3C2, Homo sapiens, UniProt P08235); reporter gene, agonist, Gaussia luciferase reporter; with: 18β-glycyrrhetinic acid 50/100 µM): ~70 nM

O=C(ON1C(=O)CCC1=O)c1cc(C(F)(F)F)cc(C(F)(F)F)c1
EC50 (CD209; binding, grating-coupled interferometry; Man(α1,2)Man-PEG3 chip; 2 h, no Tris): 125000 nM

O=C(COc1cccc(Cl)c1Cl)Nc1cc(C2CCC2)nn1CC(F)(F)F
EC50 (Kir3.1/Kir3.2; activator, thallium flux; HEK293): 2980 nM

CCCCC/C=C\C\C=C/C=C/C=C/[C@@H](SC[C@H](NC(=O)CC[C@H](N)C(=O)O)C(=O)NCC(=O)O)[C@@H](O)CCCC(=O)O
EC50 (Cysltr2; potentiation of cAMP; HEK293T transfected with Cysltr2; with: forskolin 1 µM): 0.7 nM

FC(F)(F)c1cc(Nc2nc(Cl)nc(Cl)n2)cc(C(F)(F)F)c1
EC50 (CD209; binding, plate-based HRP; overnight, room temperature): 2800 nM

CCCCCCCC/C=C\CCCCCCCC(=O)NCCc1ccc(O)c(O)c1
EC50 (Transient receptor potential cation channel subfamily V member 1 (Trpv1, Mus musculus, UniProt Q704Y3, S513A); ion current, agonist, whole-cell patch clamp; 24 °C, +80 mV): 380 ± 110 nM

O=C(COc1ccc(Cl)cc1Cl)Nc1cc(C2CCC2)nn1C1CCOCC1
EC50 (Kir3.1/Kir3.2; activator, thallium flux; HEK293): 740 nM

COc1cccc(-n2nc3c4cc(Cl)ccc4[nH]cc-3c2=O)c1
EC50 (Gamma-aminobutyric acid receptor subunit alpha-4/beta-3, with delta subunit (Rattus norvegicus, UniProt P28471+P63079); GABA-evoked current, two-electrode voltage clamp; α4β3δ receptor, with: GABA EC3-10): 15700 nM

CCCCC/C=C\C\C=C/C=C/C=C/[C@@H](SC[C@H](N)C(=O)NCC(=O)O)[C@@H](O)CCCC(=O)O
EC50 (Cysltr2; potentiation of cAMP; HEK293T transfected with Cysltr2; with: forskolin 1 µM): 0.3 nM

CCCCC[C@H](O)/C=C/[C@H]1[C@H](O)CC(=O)[C@@H]1C/C=C\CCCC(=O)O
EC50 (Prostaglandin E2 receptor EP1 subtype (PTGER1, Homo sapiens, UniProt P34995, G92A); IP1 accumulation, agonist; AD293; EP1 G92A mutant): 26.1 nM

For quick reference, copied from above:
FC(F)(F)c1cc(Nc2nc(Cl)nc(Cl)n2)cc(C(F)(F)F)c1
EC50 (CD209; binding, plate-based HRP; overnight, room temperature): 2800 nM

CCCCCCCC/C=C\CCCCCCCC(=O)NCCc1ccc(O)c(O)c1
EC50 (Transient receptor potential cation channel subfamily V member 1 (Trpv1, Mus musculus, UniProt Q704Y3, S513A); ion current, agonist, whole-cell patch clamp; 24 °C, +80 mV): 380 ± 110 nM

O=C(COc1ccc(Cl)cc1Cl)Nc1cc(C2CCC2)nn1C1CCOCC1
EC50 (Kir3.1/Kir3.2; activator, thallium flux; HEK293): 740 nM

COc1cccc(-n2nc3c4cc(Cl)ccc4[nH]cc-3c2=O)c1
EC50 (Gamma-aminobutyric acid receptor subunit alpha-4/beta-3, with delta subunit (Rattus norvegicus, UniProt P28471+P63079); GABA-evoked current, two-electrode voltage clamp; α4β3δ receptor, with: GABA EC3-10): 15700 nM
